# Results collected from several papers.
# Every numbered part comes from another study and shows a few of its results, in no order. Positions count from the first letter of the parent shown.

# Sample 1
# Target: Centromere-binding protein 1, full length, N-terminal tag (CBF1, Saccharomyces cerevisiae, UniProt P17106, residues 1-351)
# Sequence of UniProt P17106 (whole entry, looked up): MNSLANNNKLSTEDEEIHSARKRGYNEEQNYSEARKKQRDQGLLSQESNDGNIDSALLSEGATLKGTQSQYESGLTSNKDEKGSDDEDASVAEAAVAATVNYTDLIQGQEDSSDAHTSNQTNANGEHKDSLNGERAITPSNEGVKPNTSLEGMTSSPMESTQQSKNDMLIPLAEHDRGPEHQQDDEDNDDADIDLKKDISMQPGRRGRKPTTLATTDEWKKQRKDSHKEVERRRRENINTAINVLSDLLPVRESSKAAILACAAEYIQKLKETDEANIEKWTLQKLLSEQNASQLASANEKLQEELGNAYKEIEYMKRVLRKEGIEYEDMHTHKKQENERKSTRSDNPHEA
# Method: protein-binding microarray
# Molecule type: double-stranded DNA, one strand shown
# Medium: in vitro
# Tested at: 0.8 µM
# Setting: whole 60-bp probe, no competitor
# Direction: higher = stronger binding
Oligonucleotide,fluorescence intensity [a.u.]
CTAATCGCGCATAGCCACGATAAGGCGTGGTGCTTCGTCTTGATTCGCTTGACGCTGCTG,477
CCTAACTACTATAGTGATTCACCATAGCTTCGTACAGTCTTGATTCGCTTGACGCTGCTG,501
CTATTAATTCTCTCTGATGCTGCCAATAGTCATTTCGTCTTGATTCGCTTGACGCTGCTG,564
GAAATCCAGTGAATACACGTGTATATTTGACGGTAGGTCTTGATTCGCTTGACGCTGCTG,3490
GAAGTTACCTCATCTCACCTGTTTTGGAAATTATAGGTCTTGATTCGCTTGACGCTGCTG,550
GAAAGGGTTTGTCGTTGCACGTGATCAATGGTTTAGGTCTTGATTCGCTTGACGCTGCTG,17800
GAAGAGGCTTTTCAGAACGTGCTGTACTTTCGGTAGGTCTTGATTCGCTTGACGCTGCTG,678
CTATTTTACGCAATTAGCGTGCCTAAGTACAAATTCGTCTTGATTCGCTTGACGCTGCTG,547
GAAACTTATACGCATCACCCTGTATTTTTGCAATAGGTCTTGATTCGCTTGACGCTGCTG,499
GAACCTCAGAGGTGTCATCAGAAACACCTCATTTAGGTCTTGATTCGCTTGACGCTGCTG,489
CTACTCAGCGCGCACGTGCGGAGTGATCAGCCTTTCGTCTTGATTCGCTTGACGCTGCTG,8090
GAACAAGACACATTTCACCTGATATTGAAGAATTAGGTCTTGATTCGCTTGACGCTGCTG,654
TGTACGAAGCTATAGGTGATGACTATAGTAGTTAGGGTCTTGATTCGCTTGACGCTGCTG,511
CTACATTGCCACTATCACGTTGTCAAACTTTGCTTCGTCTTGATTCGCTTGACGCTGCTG,1190
CTAATTGTTTTACGCCACGTTAATAGGAACCAATTCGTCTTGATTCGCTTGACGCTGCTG,554
CTAAGGCTATATATATACGTGGTGAAATGAAATTTCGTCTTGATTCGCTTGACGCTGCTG,568
CTACATGTCCGGCATCACGTGGTTATGATGTAGTTCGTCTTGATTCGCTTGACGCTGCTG,12100
GAACCTTTTTTATATCACGAAAAAAAACGCGACTAGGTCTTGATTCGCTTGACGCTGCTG,625
GAAAACGTACATGGGTACGTGCACCGGTATTGGTAGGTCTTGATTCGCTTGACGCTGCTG,531
TGTACGAAGCTATACGGCATCAGTATAGTAGTTAGGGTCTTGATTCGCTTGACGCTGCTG,501
CTAAGCAAGGGCATTCTGATGTTACCCTAGAAATTCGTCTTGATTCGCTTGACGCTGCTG,501
CTAAGATAAAAAGAGAGCGTGATATAAATGAATTTCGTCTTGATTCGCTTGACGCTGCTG,815
CTATGCCCGAAATCCAACGTGCATTCTATTCTCTTCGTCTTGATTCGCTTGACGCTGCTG,568
CTATGCCTTATCGTTCATCACATGTTATTTTTTTTCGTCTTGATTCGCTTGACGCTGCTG,3970
CCTAACTACTATAATCACCTTCTATAGCTTCGTACAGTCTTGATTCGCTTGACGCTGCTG,497

# Sample 2
# Target: RNA binding protein fox-1 homolog 2, RRM domain, GST-SBP tag (RBFOX2, Homo sapiens, UniProt O43251-10, residues 100-194)
# Method: RNA Bind-n-Seq
# Molecule type: RNA
# Medium: in vitro
# Tested at: 365 nM
# Setting: natural RNA segment, single round, ends assumed
# Relative to: no-protein control
# Direction: higher = stronger binding
# Target sequence (chain): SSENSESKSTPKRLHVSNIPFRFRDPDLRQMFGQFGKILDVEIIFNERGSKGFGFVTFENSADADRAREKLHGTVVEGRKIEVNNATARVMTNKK
Oligonucleotide,RBNS enrichment (R)
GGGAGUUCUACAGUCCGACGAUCCCACAUGUAGCUACUACAGCAAGGCUUCUGUGUACUUGCCGGAAACGAAGGGAGGUCCUGCUCACUCCAUUUCUUUCGUUUGAAGCAGAAGGGAUGUGUAGCCAGGGAAGUGGAAUUCUCGGGUGCCAA,0.555
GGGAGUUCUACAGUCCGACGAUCUCCUGUGGAGGCUGAGAUGAAAACUAGGGCUCAUUUUCCUGACAUUUGUUUAUUUUUUGGAAGAGACAAAGAUUUCUUCUGCACUCUGAGCCCAUAGGUCUCAGAGAGUUUGGAAUUCUCGGGUGCCAA,0.448
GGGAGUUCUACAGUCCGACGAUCCCUGACAGCCCACGGCGGGUACACUGAGCAGCUGCAUUGGUGCUGUCACUUUUUUAAGGCUUUCUGUCCAGACUUCAACACUGGUUUCUUUUCAGAGUUUCGAAGGAUUAUGGAAUUCUCGGGUGCCAA,0.32
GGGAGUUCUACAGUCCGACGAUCCUAUGCCUAGGCAAACUACUAACAUGCAUUGUGAGAAUGCCGUGUAUACCUCACGUACUGUGUACUUUGUACAUAUAUUUUACCUUUUAUACCUAUGUUCGAUUUUGUUUUGGAAUUCUCGGGUGCCAA,1.17
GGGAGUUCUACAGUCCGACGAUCCCACACUGGUGGGCUGCUGGGUAUUCAGCCACCACACUCUUCACUGCUUGGACCUAGUUGGUGUUUGUGUUCUGUAAAGUGAGCACGUUGUCCUCCCAAGAGAAGCACUUUGGAAUUCUCGGGUGCCAA,0.783
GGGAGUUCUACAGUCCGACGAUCCCAUAUGAUAUGUUGUACAUUUUAUGGAAAUGUAAUAGAAUCUCACACAUUAUUUUAUAGAAAUAGAGUACAGAAGCAUCACAAGUAUUAAAGUUGGUUUUAGCAAGGAUUGGAAUUCUCGGGUGCCAA,1.24
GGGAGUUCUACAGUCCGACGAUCCGAGCACUGAGCUGGCCCUACUUCCAGGAUGGAUGCAUCACACUCAAGGACAGGAGCCUGGUCCUUCCCUGAUGGCCUUUGGACCCAGGGCCUGACUUGAGCCACUCCUUUGGAAUUCUCGGGUGCCAA,2.74
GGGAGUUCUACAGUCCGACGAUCGACUGGAGGGCAGAUGGAGAAAGCUGUCCAAGCCUGUCACUAGGCAUGUGGGUUAGACCAGGUUAGACCAAUAAAAAGCUAUGUCUUUACUUUAUGGCAUGUGCUUUUCUUGGAAUUCUCGGGUGCCAA,2.96
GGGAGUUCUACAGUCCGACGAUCAAGAGGCCUUCCUCCCUCCCUGCUCCACAGGCCCCCUCAGUCCCUGGGAAAGUAUGCACAAAAGAGACUCCCUACAUAGCUCAGAGACUACAGUGCCAAAAUGCCCCAGAUGGAAUUCUCGGGUGCCAA,1.24

# Sample 3
# Target: CCND1, cyclin fold, Cln2 fusion (human)
# Method: yeast growth competition, sequencing
# Medium: yeast
# Setting: weak parent motif
# Relative to: not given
# Direction: higher = stronger binding
# Starting sequence: DBF4 docking peptide (human); DDIVSKLVFDFVE; partner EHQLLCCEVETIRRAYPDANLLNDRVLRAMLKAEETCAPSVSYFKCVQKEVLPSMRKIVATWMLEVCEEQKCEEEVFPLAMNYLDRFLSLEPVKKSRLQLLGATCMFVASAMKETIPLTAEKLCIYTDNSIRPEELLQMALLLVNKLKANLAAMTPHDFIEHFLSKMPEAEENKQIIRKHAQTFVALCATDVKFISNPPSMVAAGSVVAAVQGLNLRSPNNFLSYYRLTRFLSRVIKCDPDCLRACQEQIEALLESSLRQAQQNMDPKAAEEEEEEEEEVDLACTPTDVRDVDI
Substitution,normalised enrichment score
F9A,0.73
D10A,0.675
V12A,0.584
K6A,0.729
S5A,0.744
F11A,0.73

# Sample 4
# Target: RING finger protein unkempt homolog, zinc fingers 1-6, GST-SBP tag (UNK, Homo sapiens, UniProt Q9C0B0, residues 30-357)
# Sequence of UniProt Q9C0B0 (30-357, looked up): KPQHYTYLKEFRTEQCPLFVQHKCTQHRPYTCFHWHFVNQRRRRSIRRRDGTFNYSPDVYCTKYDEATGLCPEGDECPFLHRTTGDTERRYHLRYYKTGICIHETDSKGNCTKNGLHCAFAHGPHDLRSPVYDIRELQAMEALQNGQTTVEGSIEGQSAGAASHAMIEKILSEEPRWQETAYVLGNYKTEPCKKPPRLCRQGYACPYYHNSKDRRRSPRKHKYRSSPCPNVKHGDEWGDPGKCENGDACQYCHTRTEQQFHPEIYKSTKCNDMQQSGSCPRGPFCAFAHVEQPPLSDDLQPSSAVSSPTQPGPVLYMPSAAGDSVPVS
# Method: RNA Bind-n-Seq
# Molecule type: RNA
# Medium: in vitro
# Tested at: not given
# Setting: RNA with constant flanks, human and mouse sites, ends assumed
# Relative to: input RNA pool
# Direction: higher = stronger binding
Oligonucleotide,bound/input enrichment
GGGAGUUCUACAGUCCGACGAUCAACCACAAUGACUGGAUUAAGCAGUAUGAAACGCUCGCAGAAAUGGUAGUACCAAGGUCAAGCAAUGUUCUUUCAGAGGACCAAGACAGUUAUCUUUGUAACGUCACCUUGUUUAGAAAACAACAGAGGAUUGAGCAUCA,0.229 ratio
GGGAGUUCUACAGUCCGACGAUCGAUAUUGUGCUUGCCAUCCUUGAAUUACUAAAGUAUCAUCAGAGAGUCUUAUAUAUUGAUAUAGAUAUUCAUCAUGGUGAUGGUGUUGAAGAAGCUUUUUAUACAACAGAUCGUGUAAUGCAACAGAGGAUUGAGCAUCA,0.348 ratio
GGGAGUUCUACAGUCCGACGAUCUUCCUGCUUCUGUUUCUGCAGAGCUUCCUUCUCCUACAUCUGCUUGCUGCUGGGAUACCCGUCACCACCCCUGGUCCUUUUACUGUGCCAUGGCAGGCAGUCUCGGCUUGGGCCCUCAUGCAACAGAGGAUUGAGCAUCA,0.13 ratio
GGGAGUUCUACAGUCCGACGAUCUGUGUGACAUUUGCUGCAGAUGUGCCUGUGUACAUUGCUGGCCAGCAGGCUUUCUUCAACUAUUCUACAAGUAAAAGAAUCACUCGGCCAGGAAAUACCGACGAUCCAUCAGGGGGCAACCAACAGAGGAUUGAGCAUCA,0.119 ratio
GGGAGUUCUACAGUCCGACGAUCAAGGUCUUUAAUGUUGCCAUCCCCCGAUUCCACAUGGCAUGUCCAACAUUCAGGGUGUCUAUAGCUCGAUUGGAAAUGGGUCCUGAUGAAUAUGAAGAGAUGGAGGAGGAAGCUGAGGAGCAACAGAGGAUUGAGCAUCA,0.142 ratio
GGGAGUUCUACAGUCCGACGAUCCAACAUUCUUCAGAUUGUGGAUGUGUGUCAUGACGUAGAAAAGGAUGAAAAACUUAUUCGUCUAAUGGAAGAGAUCAUGAGUGAGAAGGAGAAUAAAACCAUUGUUUUUGUGGAAACCAACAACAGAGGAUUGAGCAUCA,0.234 ratio
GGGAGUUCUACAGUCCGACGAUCUUUUUUCUGCCAAAAGGAGCCUACAUUUAUAAUGCACUUAUUGAAUUCAUUAGGAGCGAAUAUAGGAAAAGAGGAUUCCAGGAGGUAGUCACCCCAAACAUCUUCAACAGCCGACUCUGGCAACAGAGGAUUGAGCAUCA,0.573 ratio
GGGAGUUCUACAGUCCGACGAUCAUAUUGAAACAGUCUGCAGAUUUCCUAGCCAUAAAUAAACUUCUAAAGUACUCAUGGUUUUUCUUUGAAAUAAUUGCAAAGUCGAUGGCCACAUACUUAUUGGAAGAGAAUAAAAUUAAGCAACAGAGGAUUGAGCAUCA,0.208 ratio
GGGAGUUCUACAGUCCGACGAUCAAUUCCAUUGCCAACUUUUUCCGCUUGUUAUCUCAGGGGGGUGGAAAAAUCAAGGUUGAGAUUCUGAAAAUACUUUCAAACUUUGCUGAAAAUCCGGACAUGCUAAAGAAACUUCUCGGUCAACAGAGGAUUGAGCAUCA,0.258 ratio
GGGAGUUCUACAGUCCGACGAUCUUGAAAACUGAUUCAAGUAAGUUUGAGUAUCACAAUGUUAGCUUUCUAAUUCCAUAAAAGUACUUGGUUUUUACAGUUUAUAAUCUGACAUCACCCCAGCGCCAUUUGUAAAGAGCAACUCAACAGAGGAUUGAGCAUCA,0.555 ratio
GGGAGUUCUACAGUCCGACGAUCAUACAGUUAUCUCAAUAAUAAAGUUUUUUUCGAGAAGUUAUAAAUGAUUUUUUUUAAAGGAGGUAAAUAUCGAGUUCCAUGACAAUCUGACAGGACCUGGGAGACGCUGCUUCUUCCGCCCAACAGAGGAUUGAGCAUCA,0.27 ratio

# Repeated from above (sample 4):
Oligonucleotide,bound/input enrichment
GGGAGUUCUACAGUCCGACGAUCCAACAUUCUUCAGAUUGUGGAUGUGUGUCAUGACGUAGAAAAGGAUGAAAAACUUAUUCGUCUAAUGGAAGAGAUCAUGAGUGAGAAGGAGAAUAAAACCAUUGUUUUUGUGGAAACCAACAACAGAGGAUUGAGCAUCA,0.234 ratio
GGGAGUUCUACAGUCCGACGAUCUUUUUUCUGCCAAAAGGAGCCUACAUUUAUAAUGCACUUAUUGAAUUCAUUAGGAGCGAAUAUAGGAAAAGAGGAUUCCAGGAGGUAGUCACCCCAAACAUCUUCAACAGCCGACUCUGGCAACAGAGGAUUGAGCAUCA,0.573 ratio
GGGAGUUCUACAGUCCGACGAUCAUAUUGAAACAGUCUGCAGAUUUCCUAGCCAUAAAUAAACUUCUAAAGUACUCAUGGUUUUUCUUUGAAAUAAUUGCAAAGUCGAUGGCCACAUACUUAUUGGAAGAGAAUAAAAUUAAGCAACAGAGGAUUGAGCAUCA,0.208 ratio
